# Published values collected from several papers.
# Lines come from different studies, so protocols differ.
# MET Y1235D: Hepatocyte growth factor receptor (MET, Homo sapiens, UniProt P08581, Y1235D)
# MET: Hepatocyte growth factor receptor (MET, Homo sapiens, UniProt P08581)
# MET M1250T: Hepatocyte growth factor receptor (MET, Homo sapiens, UniProt P08581, M1250T)
SMILES,target,effect on,technique,concentration,baseline,quantity,result
C=CC(=O)N1CCC(COCC(=O)N2CCN(c3nc(-c4cnc(N)nc4C(F)F)nc(N4CCOC[C@@H]4C)n3)CC2)CC1,MET Y1235D,,KINOMEscan,1 µM,DMSO control,remaining binding,100%
[2H]c1cc(C)c(NC(=O)c2cnc(Nc3cc(N4CCCCC4)nc(C)n3)s2)c(Cl)c1,MET,,,0.01 µM,,inhibition,< 30%
COc1cc(N2CCN(C)CC2)ccc1Nc1nc(N)n(C(=S)NCc2c(Cl)cccc2Cl)n1,MET,enzyme activity,,10 µM,control,remaining activity,2.9%
C1=C/COCc2cc(ccc2OCCN2CCCC2)Nc2nccc(n2)-c2cccc(c2)COC/1,MET,,,concentration not given,,percent of control,83%
CCCOc1ccc(OC)c(F)c1C(=O)c1ccc(C(=O)N[C@@H]2CNC[C@H]2NC(=O)c2ccc3[nH]ncc3c2)cc1,"MET (Homo sapiens, UniProt P08581, D1228N)",enzyme activity,,10 µM,,remaining activity,49%
O=C(NC1CCC1)c1ccc2nc(-c3cccc(NS(=O)(=O)NCCN4CCCCC4)c3)cn2c1,MET,enzyme activity,,10 µM,,remaining activity,100%
COc1cc(N2CCN(C)CC2)ccc1Nc1nc(N)n(C(=O)NCc2c(Cl)cccc2Cl)n1,MET M1250T,enzyme activity,,10 µM,control,remaining activity,2.4%
C=CC(=O)N1CCC(C(=O)NCC(=O)N2CCN(c3nc(-c4cnc(N)nc4C(F)F)nc(N4CCOCC4)n3)CC2)CC1,MET Y1235D,,KINOMEscan,1 µM,,remaining binding,98%
C[C@@H](c1ccc(-n2cnc3c(N)ncnc32)cc1)N1CCc2nn(C)c(Cc3ccccc3)c2C1=O,MET M1250T,,KINOMEscan,0.1 µM,DMSO control,remaining binding,87%

# Excerpt of the above:
SMILES,target,effect on,technique,concentration,baseline,quantity,result
C=CC(=O)N1CCC(COCC(=O)N2CCN(c3nc(-c4cnc(N)nc4C(F)F)nc(N4CCOC[C@@H]4C)n3)CC2)CC1,MET Y1235D,,KINOMEscan,1 µM,DMSO control,remaining binding,100%
